Assay results from different studies.
A part holds a random share of what one study measured. Substitutions count along the parent as printed.

Series 1 — method: RNA Bind-n-Seq; form: RNA; medium: in vitro; concentration: 365 nM; relative to: no-protein control; direction: higher = stronger binding; endpoint: RBNS enrichment (R)
Target: RNA binding protein fox-1 homolog 2, RRM domain, GST-SBP tag (RBFOX2, Homo sapiens, UniProt O43251-10, residues 100-194)
Notes: natural RNA segment, single round, ends assumed
Residues (chain): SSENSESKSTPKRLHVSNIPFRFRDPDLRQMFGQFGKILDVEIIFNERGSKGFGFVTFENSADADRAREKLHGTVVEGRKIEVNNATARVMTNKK
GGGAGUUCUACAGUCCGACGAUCCCUGCUCAGUUAUCUAAUGUCUUAGAUCAGUGGUCCCCAAAUUUUGCUACAUAUUAGAAUCAUCUGGGAGGUUUUAAACAAAUUCUGAUGCCCAGGUUGCACCCCAUGCCUGGAAUUCUCGGGUGCCAA: 2.2
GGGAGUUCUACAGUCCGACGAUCGGCUCCGUGGCUGCCUGCUACUAGCCCUGAGUUCUUAAUGGGCUCUGGAGAGCACCUCCAUUAUCUCCUCUUGAAAGUUCCUAGCCAGCAGCGCGUUCUGCGGGGCCCACUGGAAUUCUCGGGUGCCAA: 0.406
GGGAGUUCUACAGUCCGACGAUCCCUGCAGCCAGGGGAUGGGGAGCCUCUGCUCCCCCCAUGCUCCCACCCUGGCUGAGGGCCAGCCUCAUCUGCAGAGCCCUGGAGGAGGCCCACCUAUGGACACAGCCCGAUGGAAUUCUCGGGUGCCAA: 0.597
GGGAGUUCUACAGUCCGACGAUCGGGCACUAACACGUGUGCGUUCCUGGCGGGCACACUCAGGACCGUGCCUCACAGGGCCCACUCCCUGCCUAUGCCUCCCUCUUGGGGGGCCGAGGAGGGCGGCUGCUCUGUGGAAUUCUCGGGUGCCAA: 0.148
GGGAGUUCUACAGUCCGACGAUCAAUCUGAAUUAGUCCUGUUUUGGUGGAGUUUGUACAUUUUAAAUCCUAUAACAAAAAUAAUCUAGUUUUCAUUUCCUUACUAGCUAGAUGCGAAUUUGUCUUUUUGAAUGUGGAAUUCUCGGGUGCCAA: 0.476
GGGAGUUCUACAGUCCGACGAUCAGUGUGGCUUCAUGGGAGCCCUGUUACUUCUCCAUGAAACCCCAGCUCUCUAGGCCUGACUGCCACCAGAGUCCUCUUACCACCUGCAGUCUGCCACAAAGAUGCCAUAUUGGAAUUCUCGGGUGCCAA: 0.474
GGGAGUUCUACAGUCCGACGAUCAAAUAAGAGCUAUACUUACCAGAGUCAAUAGAUCACUGGCUUCUCUUUGCUGUCAAAAGCUACAUUGCACCCACAUGUCUGGAGUUCACACCACAAAUCUGCAGUUCAUUUGGAAUUCUCGGGUGCCAA: 0.496
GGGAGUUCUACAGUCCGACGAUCAUCCCUGACCAGAGACUAGGGUGCUCUGCCUCUAAUGGUUUCUGGGAUUUCUGUAGAGCUUGGCAGUUUCUGGCUCAUUUCUCUUGAGCACCGCACUAUUCUUGCCAUAGUGGAAUUCUCGGGUGCCAA: 0.556
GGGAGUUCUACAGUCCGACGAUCGCCCAAACAGAUGUUCUGGGUGCGAGCCCGGGGCUAUAUUGGCGAGGGCGACAUGAAGAUGCACUGCUGCGUGGCCGCCUAUAUCUCCGACUAUGCCUUCUUGGGCACUGUGGAAUUCUCGGGUGCCAA: 0.405
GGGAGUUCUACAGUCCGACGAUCGUAGAGCCAGGGGUGCAAGUGCCAUCCACACUUGCAGUGAAUGGCUUUUCCUUUUAGGUUUAAGUCCUGUCUGUCUGUAAGGCGUAGAAUCUGUCCGUCUGUAAGGCGUAUGGAAUUCUCGGGUGCCAA: 0.236
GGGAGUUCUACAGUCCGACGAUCGGGCAGCCCCAAGCCUCCUGGGGAGGCAGGGCAAAAACAGGUGCCCUCAUCGUGGUCUGUGCCAUGUCCCGUCUCUAUGGUGGUUGAGGAGAAAGGCGGGGAAGCUUCCUUGGAAUUCUCGGGUGCCAA: 0.546
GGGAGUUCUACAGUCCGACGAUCACUUGAAUUUUUAGGUCAGCCCAGGGGAGAAAGCUAACUGCUGAGCUCCUCCUGUGCCCCAAUCUUUCCCAGUCCUUUCCCCUCAGAUGGAGACUUCAUUAUGUUAAUGAUGGAAUUCUCGGGUGCCAA: 0.252

Series 2 — method: RNAcompete; form: RNA; medium: in vitro; concentration: 20 nM; notes: 7-mer, probes averaged, single round; relative to: mean of 7-mers; direction: higher = stronger binding; endpoint: 7-mer Z-score
Target: PABPC1L2, full length, GST fusion (mouse, UniProt A0ABA7IW68)
Target sequence (chain): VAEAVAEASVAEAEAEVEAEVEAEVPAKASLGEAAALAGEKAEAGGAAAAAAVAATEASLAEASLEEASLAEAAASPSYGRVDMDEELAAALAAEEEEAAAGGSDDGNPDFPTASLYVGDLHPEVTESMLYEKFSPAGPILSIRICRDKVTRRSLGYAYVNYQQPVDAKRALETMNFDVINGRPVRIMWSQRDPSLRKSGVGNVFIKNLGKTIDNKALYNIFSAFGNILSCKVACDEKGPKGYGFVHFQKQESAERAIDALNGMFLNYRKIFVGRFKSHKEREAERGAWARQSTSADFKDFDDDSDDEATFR
CCUGCGA: -0.141
GUAGCAC: -0.0989
CCUGUAC: -0.376
AAUGUGU: -0.141
GAAUACG: -0.195
CAUUUUU: -0.168
UAGCCUA: -0.224
CAAUCAG: 0.0569
AGCGUCG: -0.349
AAGGCUC: -0.103
GGCUCAC: -0.11
AGCCCUU: -0.0591
GACAGAU: -0.0699
UGCCGGU: -0.271
UAAUUGG: -0.00108
CUGGGGU: -0.0772

Series 3 — observed: peptide binding; form: peptide; medium: yeast competitive growth; with: B1-Cln2 chimera; direction: direction not given; endpoint: enrichment score
PFSENVSAVQKLDFSD: 2.16
RVSGLLSWTLSRVLWL: -0.88
SDSTVTKLDFDLEP: 2.58
IQKKLRFEDTLEFVGF: -0.323
ALLRRLQDVANDRGSH: -0.868
LAKRALKYTD: -0.436
VLLKRLQDVVSERANH: -1.21
KSKHEEEEWTDDDLVE: 0.766
EPKTLFLGAGDFQF: 1.36
SPREGHMMDALYAQVK: -0.201
KRRLDLETDHQY: 0.766
TSPGPVLLHPSPSTTQ: 0.507
KDDDKAWEYEERDRRS: -0.0202

Series 4 — method: protein-binding microarray; form: double-stranded DNA, one strand shown; medium: in vitro; concentration: 2200 nM top; notes: 60-bp whole probe; with: salmon DNA 0.4 mg/ml; relative to: random background probes; direction: higher = stronger binding; endpoint: fitted relative affinity; all sequences stand within: GCCTAGCAC … GTCTTGATTCGCTTGACGCTGCTG
Target: Interferon regulatory factor 7, full length, phosphomimetic (IRF7, Homo sapiens, UniProt Q92985, residues 1-503, S471D/S472D/S475D/S476D/S477D/S483D/S484D/S487D)
UniProt Q92985, sequence (whole entry, unmodified, looked up): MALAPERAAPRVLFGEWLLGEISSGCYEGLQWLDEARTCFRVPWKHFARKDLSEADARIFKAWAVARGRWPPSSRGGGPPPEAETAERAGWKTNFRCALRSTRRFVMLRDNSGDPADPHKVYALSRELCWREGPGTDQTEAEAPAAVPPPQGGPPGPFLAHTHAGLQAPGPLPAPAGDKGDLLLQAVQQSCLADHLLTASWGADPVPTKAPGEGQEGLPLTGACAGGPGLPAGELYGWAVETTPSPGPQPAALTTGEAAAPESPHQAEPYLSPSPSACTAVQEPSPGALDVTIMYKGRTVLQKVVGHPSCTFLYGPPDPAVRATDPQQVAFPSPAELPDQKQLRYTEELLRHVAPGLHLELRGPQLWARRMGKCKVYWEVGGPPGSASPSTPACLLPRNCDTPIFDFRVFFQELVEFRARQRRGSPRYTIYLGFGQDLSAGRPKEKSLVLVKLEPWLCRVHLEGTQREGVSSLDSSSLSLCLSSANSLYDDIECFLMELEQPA
CTAGTAGCCTAAGGCTACCGGTGCTAG: -0.335 z-score
TCGTTATCCTATATCTGAACGTGCTAG: 3.11 z-score
GACGGTCTCGGCCTCGGGACGTGCTAG: -0.592 z-score
TCATCTCTGGGCTGTGGGACTGTGCTA: 0.161 z-score
TTAGGACTAGACTATCGGTTAGTGCTA: -0.302 z-score
GATTGGCTGACTTTGGAGATGTGCTAG: -0.0877 z-score
TCACTTATTGCTTCCTCACTGTGCTAG: 2.29 z-score
TCACACATCTCACTCTAACTGTGCTAG: 1.45 z-score
GACGATTTCAGTCTCGAGAGGTGCTAG: 0.464 z-score
TTAGGACTGGGGTATCGGATAGTGCTA: -0.569 z-score
GACGATTTCAGGCTGGAGACGTGCTAG: 0.355 z-score
TTAGGATCCGGTTTCGGTTAGTGCTAG: 7.17 z-score
GACGAACTGCGGTTTCGAGACGTGCTA: 2.11 z-score
AGTCCTGTCCAAGATGAGGAGTGCTAG: 0.204 z-score
TTAGATATCGGGTACCGATTAGTGCTA: -0.385 z-score
TAAGGTTCCGGTTTCGGTTAGTGCTAG: 8.68 z-score
TCTCTTTCCACTTGTCTTTTCGTGCTA: 5.89 z-score
GACTGTCTCGGTCTCGGGACGTGCTAG: 0.251 z-score
TTAGATATCAGTTTCGATTGGTGCTAG: 8.28 z-score
TTAGATATCAGTCTCGAATAGTGCTAG: 0.0164 z-score
CAGCCTTTGCCTCATCTTGCAGTGCTA: 0.727 z-score

Series 5 — method: DHFR PCA, deep sequencing; medium: yeast; with: (+)-ABA 58 µM; relative to: wild-type fitted maximum; direction: higher = stronger binding; endpoint: relative binding score
Target: ABI1, truncated, D143A, DHFR fusion (Arabidopsis thaliana)
Notes: methotrexate growth selection, single substitutions
Parent: PYL1, truncated, DHFR fusion (Arabidopsis thaliana); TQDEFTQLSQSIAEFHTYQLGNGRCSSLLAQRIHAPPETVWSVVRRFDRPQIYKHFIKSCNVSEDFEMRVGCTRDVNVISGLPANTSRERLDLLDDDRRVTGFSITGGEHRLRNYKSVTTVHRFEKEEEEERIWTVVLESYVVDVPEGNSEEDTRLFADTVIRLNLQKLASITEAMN; partner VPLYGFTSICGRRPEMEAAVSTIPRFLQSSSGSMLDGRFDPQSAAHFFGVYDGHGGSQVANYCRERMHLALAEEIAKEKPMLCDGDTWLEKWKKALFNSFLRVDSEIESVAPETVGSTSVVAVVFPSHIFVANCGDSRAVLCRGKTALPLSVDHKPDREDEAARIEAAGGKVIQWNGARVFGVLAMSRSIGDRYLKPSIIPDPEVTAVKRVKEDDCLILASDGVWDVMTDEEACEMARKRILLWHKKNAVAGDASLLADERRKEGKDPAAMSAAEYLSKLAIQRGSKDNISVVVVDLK
M68F: 75.1%
R88P: -8.15%
T17K: 79.2%
D144I: 21.4%
V118E: 3.06%
Q31A: 42.6%
T154L: 36.1%
H110D: 5.15%
S27E: 33.2%
D48G: 32%
A175R: 84.4%
S80H: 30.2%
Y53M: 20.5%
R132F: 89.1%
I57C: 45%
E174C: 68.8%
I162E: 3.84%
N85F: 76.9%
E14W: 39.3%
N22E: 95.5%
E127V: 91.6%
N177G: 77%
G81A: 29.8%
A13S: 83.7%
G71A: 25.6%

Series 6 — method: aptamer microarray, sandwich; form: DNA with 2'F-ANA; medium: in vitro; concentration: 200 nM; with: Cy3 exosite-II aptamer, 400 nM; direction: higher = stronger binding; endpoint: mean fluorescence intensity; sequence: GGTTGGTGTGGTTGG
Target: Prothrombin, mature alpha-thrombin (F2, Homo sapiens, UniProt P00734)
Notes: whole 15-mer aptamer, many near background
2'F-ANA at 1 5 9 10 11 12 14 15: 46.9 a.u.
2'F-ANA at 1 5 6 7 10 11 12 13 14: 65.2 a.u.
2'F-ANA at 1 2 3 8 10 12 14: 53.5 a.u.
2'F-ANA at 3 5 7 8 11 12 15: 237 a.u.
2'F-ANA at 2 3 5 6 7 8 11 12 14: 64.9 a.u.
2'F-ANA at 3 4 5 12 15: 239 a.u.
2'F-ANA at 3 4 5 6 7 8 11 12 13 14: 85.5 a.u.
2'F-ANA at 2 3 4 5 7 8 11 12 13 15: 170 a.u.
2'F-ANA at 1 2 10 11 13 15: 51.6 a.u.
2'F-ANA at 2 4 5 7 8 9 11 13 14 15: 45.2 a.u.
2'F-ANA at 1 2 7 10 11 14: 48.1 a.u.

Some of these lines once more (series 6):
2'F-ANA at 1 5 9 10 11 12 14 15: 46.9 a.u.
2'F-ANA at 1 5 6 7 10 11 12 13 14: 65.2 a.u.
2'F-ANA at 1 2 3 8 10 12 14: 53.5 a.u.
2'F-ANA at 3 5 7 8 11 12 15: 237 a.u.
2'F-ANA at 2 3 5 6 7 8 11 12 14: 64.9 a.u.
2'F-ANA at 3 4 5 12 15: 239 a.u.
2'F-ANA at 3 4 5 6 7 8 11 12 13 14: 85.5 a.u.
2'F-ANA at 2 3 4 5 7 8 11 12 13 15: 170 a.u.
2'F-ANA at 1 2 10 11 13 15: 51.6 a.u.
2'F-ANA at 2 4 5 7 8 9 11 13 14 15: 45.2 a.u.
2'F-ANA at 1 2 7 10 11 14: 48.1 a.u.
